Published values of several laboratories.
Protocols differ between the studies behind these lines. “And” joins repeats or separate records; there may be more than shown.
Target: Fibroblast growth factor receptor 4 (FGFR4, Homo sapiens, UniProt P22455)
Sequence of UniProt P22455 (whole entry, looked up): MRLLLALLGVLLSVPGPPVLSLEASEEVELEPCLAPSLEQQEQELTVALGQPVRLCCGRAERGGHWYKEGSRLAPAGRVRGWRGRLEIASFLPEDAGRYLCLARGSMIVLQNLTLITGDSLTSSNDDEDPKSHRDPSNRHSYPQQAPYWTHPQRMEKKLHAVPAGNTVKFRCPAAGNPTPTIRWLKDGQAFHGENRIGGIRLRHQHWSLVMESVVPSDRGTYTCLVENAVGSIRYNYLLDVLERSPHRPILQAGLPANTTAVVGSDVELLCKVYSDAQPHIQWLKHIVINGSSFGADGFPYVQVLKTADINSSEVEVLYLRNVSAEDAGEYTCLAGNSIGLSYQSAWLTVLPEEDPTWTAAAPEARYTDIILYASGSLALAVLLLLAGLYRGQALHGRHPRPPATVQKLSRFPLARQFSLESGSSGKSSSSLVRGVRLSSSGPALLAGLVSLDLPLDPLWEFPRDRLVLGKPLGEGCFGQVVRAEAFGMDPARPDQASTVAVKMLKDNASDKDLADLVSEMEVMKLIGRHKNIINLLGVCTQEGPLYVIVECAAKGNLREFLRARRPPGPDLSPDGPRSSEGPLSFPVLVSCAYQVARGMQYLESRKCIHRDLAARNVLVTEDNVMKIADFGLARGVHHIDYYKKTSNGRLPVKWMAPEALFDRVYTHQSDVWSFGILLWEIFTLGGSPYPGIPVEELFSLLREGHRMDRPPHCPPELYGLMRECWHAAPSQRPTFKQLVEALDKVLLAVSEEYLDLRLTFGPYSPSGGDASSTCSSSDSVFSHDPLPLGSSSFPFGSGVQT

With Cc1[nH]nc2c1N=C(c1ccccc1Cl)c1cnc(N3CCOCC3)cc1N2 the inhibition was 69.8% (enzyme activity, inhibitor; 0.5 µM).
C[C@H]1CN(C(=O)c2cn(-c3ccnc(N)n3)c3cc(C#CC4(O)CCCCC4)ccc23)CCN1 gave an inhibition of -11% (enzyme activity, inhibitor, FRET; 1 µM).
NC(=O)C[C@H]1CCc2sc3ncnc(O[C@H]4CC[C@H](N5CCOCC5)CC4)c3c21 gave an inhibition of 10% (enzyme activity, inhibitor; 10 µM).
For Cc1cccc(O[C@H]2CCC[C@@H](C(C)CNCc3ccncc3)C2)c1 (relative stereo), the inhibition was 0% (cell-free assay; 10 µM).
COc1cc(Nc2nccc(-c3cnn4nc(OC)ccc34)n2)cc(C(F)(F)F)c1 gave a remaining binding of 86% (binding, competition with immobilised ligand; 1 µM).
COCC12C(=O)NC3C4(C(OC)CC1O)C1CC5(O)C(OC)C(O)C(OC(C)=O)(C1C5OC(=O)c1ccccc1)C3(O)C(OC)C24 (centres unmarked) gave a remaining activity of 99% and 98% (kinase activity, inhibitor, ProQinase kinase profiling; 25 µM; relative to: control).
For Nc1ncc2c(n1)-c1c([nH]c3ccc(C4=CCOCC4)cc13)CCC2, the remaining binding was 100% (binding, competition with immobilised ligand; 1 µM).
CCn1cc(C(=O)O)c(=O)c2c(N)c(F)c(NC3CCCCC3)cc21 has an inhibition of 2.9% (kinase activity; 0.1 µM, added: ATP at Km).
O=C=[N][Ru-4]123([n]4c5ccc(O)cc5c5c6c(c7cc(F)c[n+]1c7c54)C(=O)NC6=O)[S+]1CC[S+]2CC[S+]3CC1 (centres unmarked) gave a remaining activity of 98% (enzyme activity; 100 nM, human enzyme, added: 10 µM ATP; relative to: untreated).
With C=CC(=O)N1CCCC(n2c(=O)c3ncccc3n(Cc3ccc(Oc4ccccc4)cc3)c2=O)C1 (centres unmarked) the remaining binding was 100% (cell-free assay, competition with immobilised ligand; 1 µM).
With CC(C)=CC1OC(C)(C)C2C=C3C(=O)C(Cl)=CC(O)C3C3C(O)C4OC4C(=O)C132 (centres unmarked) the remaining binding was 92% (cell-free assay, competition with immobilised ligand; 10 µM).
O=C(Nc1ccc(Oc2ncnc3[nH]cc(-c4ccccc4)c23)c(F)c1)c1c2n(n(-c3cc(F)ccc3F)c1=O)CCCC2 has an inhibition of -3% (enzyme activity, inhibitor; 0.5 µM).
Cc1ccc(-c2c(/C=C(\C#N)C(=O)NC(C)C)n(CCCO)c3ncnc(N)c23)cc1 has a remaining binding of 99% (cell-free assay, competition with immobilised ligand; 1 µM).
Under “activity vs control”, CNC(=O)C[C@H](Cc1ccc(C#N)cc1)NC(=O)c1cc(-c2ccc(CN[C@H](C)c3ccc(C)cc3)o2)ccc1Cl is recorded as 108% (enzyme activity, inhibitor; 1 µM).
COc1ccc(C(=O)/C=C/c2ccccc2-c2c[nH]c3ccc(C#N)cc23)c(O)c1 gave an inhibition of 8% (enzyme activity, inhibitor; 20 µM).
The remaining binding of Cc1cnc2nc1Nc1cccc(c1)COC/C=C/COCc1cc(ccc1OCCN1CCOCC1)N2 is reported as 100% (binding; 0.1 µM).
With C=CC(=O)Nc1cccc(-c2cnc3[nH]cc(C(=O)NC(C)(C)C)c3n2)c1 the inhibition was 10% (enzyme activity, inhibitor; 0.1 µM).

For quick reference, copied from above:
With C=CC(=O)N1CCCC(n2c(=O)c3ncccc3n(Cc3ccc(Oc4ccccc4)cc3)c2=O)C1 (centres unmarked) the remaining binding was 100% (cell-free assay, competition with immobilised ligand; 1 µM).
